Experimental data from different studies.
Numbered parts are unrelated; each lists some results of a single study. Substitutions count along the parent as printed.

Study 1 — target: CRIPT, C-terminal peptide; method: DHFR complementation, deep sequencing; sample: yeast; baseline: wild type; reading: higher = weaker binding
Notes: single substitutions, model-inferred values
Parent: ERBIN, PDZ domain 1 (human); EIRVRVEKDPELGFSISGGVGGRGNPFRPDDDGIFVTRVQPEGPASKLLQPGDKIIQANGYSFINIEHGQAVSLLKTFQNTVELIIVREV; partner TKNYKQTSV
| Change | binding free energy change |
| --- | --- |
| I86G | 0.376 kcal/mol |
| V87F | 0.0571 kcal/mol |
| I34D | 0.222 kcal/mol |
| V82S | 0.635 kcal/mol |
| G60K | 0.128 kcal/mol |
| G43H | 1.47 kcal/mol |
| E1F | 0.241 kcal/mol |
| D9T | 0.279 kcal/mol |
| G22P | 0.164 kcal/mol |

Study 2 — method: universal PBM; form: double-stranded DNA, one strand shown; sample: in vitro; tested at: 600 nM; reading: higher = stronger binding
Target: Sal-like protein 4, full length isoform A (SALL4, Homo sapiens, UniProt Q9UJQ4, residues 1-1053)
Chain of UniProt Q9UJQ4 (whole entry, looked up): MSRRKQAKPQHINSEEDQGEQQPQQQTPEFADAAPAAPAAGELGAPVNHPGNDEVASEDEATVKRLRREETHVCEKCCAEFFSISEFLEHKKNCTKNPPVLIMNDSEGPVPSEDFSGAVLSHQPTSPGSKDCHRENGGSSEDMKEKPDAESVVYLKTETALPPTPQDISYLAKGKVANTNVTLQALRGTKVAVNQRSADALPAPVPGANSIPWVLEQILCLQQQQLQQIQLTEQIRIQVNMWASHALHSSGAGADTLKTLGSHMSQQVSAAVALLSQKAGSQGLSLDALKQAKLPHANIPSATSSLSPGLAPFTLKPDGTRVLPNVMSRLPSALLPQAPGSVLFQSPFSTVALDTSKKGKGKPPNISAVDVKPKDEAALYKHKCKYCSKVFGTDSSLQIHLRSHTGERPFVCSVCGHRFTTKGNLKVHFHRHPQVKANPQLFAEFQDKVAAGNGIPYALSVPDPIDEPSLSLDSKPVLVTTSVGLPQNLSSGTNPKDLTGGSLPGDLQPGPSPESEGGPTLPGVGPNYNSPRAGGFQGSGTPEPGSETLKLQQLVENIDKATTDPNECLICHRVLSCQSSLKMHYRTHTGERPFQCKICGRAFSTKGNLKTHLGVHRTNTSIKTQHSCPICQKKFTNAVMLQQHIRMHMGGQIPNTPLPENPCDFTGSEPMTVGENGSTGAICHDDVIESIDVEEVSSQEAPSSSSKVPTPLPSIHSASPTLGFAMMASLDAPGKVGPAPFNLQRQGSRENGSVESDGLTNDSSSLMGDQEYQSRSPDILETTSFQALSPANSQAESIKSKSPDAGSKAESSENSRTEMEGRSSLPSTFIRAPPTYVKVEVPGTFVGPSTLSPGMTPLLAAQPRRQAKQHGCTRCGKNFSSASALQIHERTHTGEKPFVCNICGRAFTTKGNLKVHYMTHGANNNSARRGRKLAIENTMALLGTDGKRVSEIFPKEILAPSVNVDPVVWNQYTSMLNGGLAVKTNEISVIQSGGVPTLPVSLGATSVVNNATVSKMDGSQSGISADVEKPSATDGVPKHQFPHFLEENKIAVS
Notes: 8-mer, flanks averaged, mean of replicates
| Oligonucleotide | E-score |
| --- | --- |
| CCGCAACG | -0.116 |
| CCCTAATA | 0.226 |
| AGTAGAGA | 0.123 |
| AGAATGCC | 0.0688 |
| GGGTTCCA | -0.225 |
| GTTGCTTA | 0.0845 |
| ATAGTGGC | -0.0725 |
| TGCAAGCA | -0.0369 |
| CTTAACAC | 0.0778 |
| CCCCAACC | -0.26 |
| AGCTCAAC | -0.232 |
| CACTATAC | 0.188 |
| TGACCAAA | 0.161 |
| GAAATGGA | 0.0279 |
| CTTCACTA | 0.161 |
| TAATCACA | 0.247 |
| GGCCTCTA | -0.254 |
| GGAAGTCC | -0.204 |
| CTCGCCGC | -0.327 |
| TAGGAGAA | 0.0853 |
| GCGGACTA | -0.00615 |
| ACTATGAT | 0.199 |
| CTGCCATC | -0.0603 |
| CTGTGGCC | -0.38 |
| CCGGTAAG | -0.195 |

Study 3 — method: RNA Bind-n-Seq; form: RNA; sample: in vitro; tested at: 365 nM; baseline: no-protein control; reading: higher = stronger binding
Target: RNA binding protein fox-1 homolog 2, RRM domain, GST-SBP tag (RBFOX2, Homo sapiens, UniProt O43251-10, residues 100-194)
Notes: natural RNA segment, single round, ends assumed
Shared flanks, not repeated: GGGAGUUCUACAGUCCGACGAUC … UGGAAUUCUCGGGUGCCAA
Residues (chain): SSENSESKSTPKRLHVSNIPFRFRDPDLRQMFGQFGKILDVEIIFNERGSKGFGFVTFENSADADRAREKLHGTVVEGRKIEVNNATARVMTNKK
| Oligonucleotide | RBNS enrichment (R) |
| --- | --- |
| AGGAAACGUUUACUACUAAGGUUAGGCCUGCAGUUGCUCUGGAACAUUCCAUGGAGAAUGCAUUCAUCAAACGGCCCGAAAGAAGCUACAUUUUGUUGGGAAGCUGGAUA | 0.517 |
| GUAAUCAAGCACGGAUCUUCUCAGCCAAGCCCAUUUCCUGCCCUGAGGUUUGGGAGUGGGAUAAGGAGAGGAGACCGACUUCGGAGGUCCCUGAAAUAAAGUGAUACAAU | 0.253 |
| UCCUUAUUUUUUUCUUUCAAAUAACUUUAAUUAUUUAAUCCCAUACUGAUUAAAAUAUGUCUGUCUAAAGGGAUCUACUACUAUUUGCUUUUAAAAAAGUGUUCCCUAUU | 2.43 |
| AUACAUUAAUUAAUGGCUUCGUUAAUUAAUGUCAUGUUGCUUGUUGCUUUCUCAGUGUGUGUAUGGUCCAUGCCCAGUGCUGGUGACAGGGUGGGUAUCCAUGAUGUGUG | 0.67 |
| UUUAUUGAGUGAAGCCUUAAAAAGCACACACCACACACAGCUAACUGCCAAAAUACAUUGACCGUAGUAGCUGUUCAACUCCUAGUACUUAGAAAUACACGUAUGGUUAA | 0.699 |
| UUCUGUAAGUUUUUGAGAGGCAAUUGGCAAUUUAGGAGGCAGCAGGGUCUGUUUUGGUCAAAUCUUGAAUUUCGUUGUUGCACUCUAGUGACUGAUCUUUGGGAAUGUCU | 0.64 |
| GUUUGCCAUUGCAAGCAUAGUGCUGUGUCAUCCUGGUCCAUGUAGGACUGGUGCUAACCACCUGCCAUCAUGAGGAUGUGUGCUAGAGUGUGGGACCCUGGCCAAGUGCA | 3.63 |
| UGCGCAUUGUGCCGUGGGGCUUAGGAUGAGUUGGACACGCGCACUGACAAUGCCUAGGACUGCCUUACUCCCUUCCCUCAGGCCAGUUCCUGGGCCAGCACUAGCCUUGA | 2.17 |
| GCUGGGGGCAGACACCCGAGUGUCUACGUAAGGUAGUAAAGUGGAAAUAGUCUUUGCUCAUUCUUGGGAUGCCUGAACGCUAGCUAAGCAUCUGAUAAACGCUGUGGAGA | 0.855 |
| GCCCUUCCUCUCCCACAUUAUUUCUUAAUCUGAACAUGAAGGCUCCAUUAGCAACACUAAAACUUGAUCAUUAACAGCCCCCUGUGCAUAUGAGUGGAUCAAACCGGUUC | 0.824 |
| GCCCUCCCUGGUGCGUCUGCGCUGGGGCCCUCAGUGCUCGGGGCCUUGGGGUGCAUGGGUGCCGCCCUGGGCAGCUAGAGUGUCUCAGCCCGGUGCUGGGCCUGGCCGAG | 12.4 |
| AUAUUUUCCCUCUCUUGCCUUUCUUAUUUGCAAUAAAAGGUAUUGAGCCAUUUUUUAAAUGACAUUUUUGAUAAAUUAUGUUUGUACUAGUUGAUGAAGGAGUUUUUUUU | 0.807 |

Study 4 — target: CCND1, cyclin fold, Cln2 fusion (human); method: yeast growth competition, sequencing; sample: yeast; notes: weak parent motif; baseline: not given; reading: higher = stronger binding
Parent: MASTL docking peptide (human); PMIAKNLMCELDE; partner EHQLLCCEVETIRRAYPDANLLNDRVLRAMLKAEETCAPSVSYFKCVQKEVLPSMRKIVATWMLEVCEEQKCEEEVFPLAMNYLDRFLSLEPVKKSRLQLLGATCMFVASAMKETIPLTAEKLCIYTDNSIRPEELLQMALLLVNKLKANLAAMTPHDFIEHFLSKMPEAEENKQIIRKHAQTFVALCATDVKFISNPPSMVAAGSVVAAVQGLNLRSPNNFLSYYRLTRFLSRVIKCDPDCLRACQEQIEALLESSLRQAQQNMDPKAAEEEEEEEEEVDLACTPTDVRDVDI
| Change | normalised enrichment score |
| --- | --- |
| PMIAVNLMCELDE [K5V] | 0.141 |
| PMIAKNLMCEGDE [L11G] | 0.163 |
| PMIDKNLMCELDE [A4D] | -0.115 |
| PMIAKNLMCWLDE [E10W] | 0.124 |
| PHIAKNLMCELDE [M2H] | 0.26 |
| PMIAKNLMCALDE [E10A] | -0.14 |
| PAIAKNLMCELDE [M2A] | -0.00386 |
| PMIAKNLMFELDE [C9F] | 0.452 |
| PMIAKNLPCELDE [M8P] | 0.101 |
| PYIAKNLMCELDE [M2Y] | 0.453 |
| PMIAWNLMCELDE [K5W] | 0.914 |
| PMIAKNLMCELQE [D12Q] | 0.258 |
| PMIAKNLMCELLE [D12L] | -0.123 |
| PMIACNLMCELDE [K5C] | 0.561 |
| PMIAKNLMCEWDE [L11W] | 0.475 |
| PMIAKILMCELDE [N6I] | 0.169 |
| PMIAKNTMCELDE [L7T] | -0.272 |
| PMIAKNLECELDE [M8E] | 0.0999 |
| PMIHKNLMCELDE [A4H] | -0.0392 |
| PMIFKNLMCELDE [A4F] | 0.479 |
| PMIAKNPMCELDE [L7P] | -0.0593 |
| PMIAKMLMCELDE [N6M] | 0.299 |
| PMIAKNLMCYLDE [E10Y] | 0.147 |
| PMIAKFLMCELDE [N6F] | -0.0554 |
| PMIPKNLMCELDE [A4P] | 0.13 |

Study 5 — method: protein-binding microarray; form: double-stranded DNA, one strand shown; sample: in vitro; tested at: 250 nM; notes: 60-bp whole probe; added: salmon DNA 0.4 mg/ml; baseline: random background probes; reading: higher = stronger binding; shared flanks, not repeated: GCCTAGCAC … GTCTTGATTCGCTTGACGCTGCTG
Target: Interferon regulatory factor 5, full length, phosphomimetic (IRF5, Homo sapiens, UniProt Q13568-2, residues 1-514, K96S/S451D/S453D/S456D/S462D)
| Oligonucleotide | log fluorescence |
| --- | --- |
| TTAGATATCGGGTATCGATTTGTGCTA | 5.17 z-score |
| GCCGGACTGGGTTTCGGGACGTGCTAG | 1.95 z-score |
| TCCTTTTAATTTTTAACGAGGTGCTAG | 0.515 z-score |
| TTAGGTCTCGGTATCGGCTAGTGCTAG | 2.01 z-score |
| TAAGGTTTCGGTTCCGGTTAGTGCTAG | 9.83 z-score |
| GACGATTTCAGACTGGAGGCGTGCTAG | 0.227 z-score |
| TTAGGTTTCCGGTATCGGTTAGTGCTA | 5.75 z-score |
| GACGGACTCGGGTTTCGGGACGTGCTA | 1.33 z-score |
| GACGGACAGGGGACTGGGGACGTGCTA | -0.554 z-score |
| GACGATATCAGTCTCTAGACGTGCTAG | 1.16 z-score |
| GGATGTCTGTAGCTCATTCTGTGCTAG | -0.356 z-score |
| GACGGTTTCGGGTTTCGGCACGTGCTA | 7.73 z-score |
| GACGGACTGTGGTATCGGGACGTGCTA | 0.375 z-score |
| TCATTTTTAGATATCTTACTGTGCTAG | 0.886 z-score |
| TTAGGTATCATTATCCTTTAGTGCTAG | 1.69 z-score |
| GACGGGATCCTTCTCCTGACGTGCTAG | -0.152 z-score |
| TTAGGTTTCGGTTCCGCTTAGTGCTAG | 10.4 z-score |
| GACGATATCGGACTGGGGACGTGCTAG | 0.561 z-score |
| TTAGGACTGGGTATCGGTTCGTGCTAG | 2.85 z-score |
| GACGCACTGAGACTGGAGACGTGCTAG | -0.219 z-score |
| GACGTACTGGGGACTGGAGACGTGCTA | -0.419 z-score |
| GACGAACTGTGGTTTCGAGACGTGCTA | 2.07 z-score |

Study 6 — method: protein binding microarray; form: double-stranded DNA, one strand shown; sample: in vitro; tested at: not given; baseline: not given; reading: higher = stronger binding
Target: Histone acetyltransferase KAT6A, winged helix 1, GST fusion (KAT6A, Homo sapiens, UniProt Q92794, residues 1-85)
Notes: 8-mer, flanks averaged, mean of 2 arrays, mostly near background
Target sequence (chain): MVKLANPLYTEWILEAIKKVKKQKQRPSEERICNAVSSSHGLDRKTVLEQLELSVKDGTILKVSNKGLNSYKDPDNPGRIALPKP
| Oligonucleotide | E-score |
| --- | --- |
| CCTTCGTA | -0.134 |
| ACGTGCCC | -0.0116 |
| GTTCTGGA | -0.123 |
| GCGTAGTA | 0.169 |
| ACGGGTGG | 0.293 |
| ATCGGTAC | 0.166 |
| GCTCCTAA | -0.0589 |
| ATTAAAGC | -0.0387 |
| ATCCCCTG | -0.198 |
| GACCCACA | -0.116 |
| AGGCCGGA | 0.175 |
| CCTTGGCC | -0.146 |
| ATCACGAT | -0.143 |
| AATATACA | -0.137 |
| CGTTGAAG | -0.102 |
| GGGCGTTA | 0.00724 |
| AGAACCGC | 0.127 |
| ACAGAATG | -0.104 |
| CCACTCGA | -0.222 |
| ATAAAAAG | -0.103 |
| ACTACCCC | -0.0984 |
| ACCGTTAC | 0.0359 |
| AGACATTA | -0.0429 |
| CCATGAAG | -0.128 |
| GCCCGCGA | 0.337 |

Repeated from above (study 4):
| Change | normalised enrichment score |
| --- | --- |
| PMIAKNLMCALDE [E10A] | -0.14 |
| PAIAKNLMCELDE [M2A] | -0.00386 |
| PMIAKNLMFELDE [C9F] | 0.452 |
| PMIAKNLPCELDE [M8P] | 0.101 |
| PYIAKNLMCELDE [M2Y] | 0.453 |
| PMIAWNLMCELDE [K5W] | 0.914 |
| PMIAKNLMCELQE [D12Q] | 0.258 |
| PMIAKNLMCELLE [D12L] | -0.123 |
| PMIACNLMCELDE [K5C] | 0.561 |
| PMIAKNLMCEWDE [L11W] | 0.475 |
| PMIAKILMCELDE [N6I] | 0.169 |
| PMIAKNTMCELDE [L7T] | -0.272 |
| PMIAKNLECELDE [M8E] | 0.0999 |
| PMIHKNLMCELDE [A4H] | -0.0392 |
| PMIFKNLMCELDE [A4F] | 0.479 |
| PMIAKNPMCELDE [L7P] | -0.0593 |
| PMIAKMLMCELDE [N6M] | 0.299 |
